Experimental data gathered from unrelated publications.
Each line is one published result; not all experiments were run side by side. ± marks the error that the study gave.
Rbpj: Rbpj 53-474 (Mus musculus, UniProt P31266)
Sequence of UniProt P31266 (whole entry, looked up): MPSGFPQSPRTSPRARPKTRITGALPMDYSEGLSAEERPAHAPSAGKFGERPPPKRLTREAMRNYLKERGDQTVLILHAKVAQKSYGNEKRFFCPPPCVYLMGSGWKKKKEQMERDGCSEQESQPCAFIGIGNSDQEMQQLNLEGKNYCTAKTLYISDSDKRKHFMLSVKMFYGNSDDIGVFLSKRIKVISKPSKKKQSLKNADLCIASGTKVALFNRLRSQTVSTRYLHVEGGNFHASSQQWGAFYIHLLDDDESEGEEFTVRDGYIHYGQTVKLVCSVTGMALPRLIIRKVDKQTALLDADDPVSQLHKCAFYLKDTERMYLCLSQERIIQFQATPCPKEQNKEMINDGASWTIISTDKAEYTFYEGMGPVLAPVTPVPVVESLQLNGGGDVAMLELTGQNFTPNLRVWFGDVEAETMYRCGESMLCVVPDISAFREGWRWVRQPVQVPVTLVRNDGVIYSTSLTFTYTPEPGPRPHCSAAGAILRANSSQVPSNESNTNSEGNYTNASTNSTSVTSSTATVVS
FGFR3 isoform IIIc: FGFR3 isoform IIIc (unknown, UniProt Q61851)
Sequence of UniProt Q61851 (whole entry, looked up): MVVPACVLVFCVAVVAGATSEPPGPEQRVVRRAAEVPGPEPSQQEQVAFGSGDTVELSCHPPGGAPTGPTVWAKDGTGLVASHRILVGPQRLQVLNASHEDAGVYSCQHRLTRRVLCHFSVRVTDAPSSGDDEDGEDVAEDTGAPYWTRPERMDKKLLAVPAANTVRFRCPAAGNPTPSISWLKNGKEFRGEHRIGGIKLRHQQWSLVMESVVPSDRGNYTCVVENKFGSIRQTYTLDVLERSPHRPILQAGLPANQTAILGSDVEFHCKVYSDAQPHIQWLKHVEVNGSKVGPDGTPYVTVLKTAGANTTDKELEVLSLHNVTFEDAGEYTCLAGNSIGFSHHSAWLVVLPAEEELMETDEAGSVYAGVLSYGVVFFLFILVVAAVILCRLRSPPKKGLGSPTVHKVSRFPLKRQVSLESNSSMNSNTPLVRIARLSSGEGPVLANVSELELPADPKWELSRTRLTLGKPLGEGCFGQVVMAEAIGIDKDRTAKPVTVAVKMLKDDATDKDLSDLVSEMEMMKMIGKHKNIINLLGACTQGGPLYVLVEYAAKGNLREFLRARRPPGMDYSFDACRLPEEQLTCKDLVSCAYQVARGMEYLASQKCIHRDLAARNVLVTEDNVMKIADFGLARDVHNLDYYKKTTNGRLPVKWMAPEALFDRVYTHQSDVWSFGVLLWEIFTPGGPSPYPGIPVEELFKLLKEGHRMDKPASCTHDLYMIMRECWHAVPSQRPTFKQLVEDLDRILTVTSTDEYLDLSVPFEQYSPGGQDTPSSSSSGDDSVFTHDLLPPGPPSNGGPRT
B1: POL30 (Saccharomyces cerevisiae, UniProt P15873); Cy3 label; sequence looked up; chain MLEAKFEEASLFKRIIDGFKDCVQLVNFQCKEDGIIAQAVDDSRVLLVSLEIGVEAFQEYRCDHPVTLGMDLTSLSKILRCGNNTDTLTLIADNTPDSIILLFEDTKKDRIAEYSLKLMDIDADFLKIEELQYDSTLSLPSSEFSKIVRDLSQLSDSINIMITKETIKFVADGDIGSGSVIIKPFVDMEHPETSIKLEMDQPVDLTFGAKYLLDIIKGSSLSDRVGIRLSSEAPALFQFDLKSGFLQFFLAPKFNDEE
B2: TIMP3 24-144 (Homo sapiens, UniProt P35625); sequence looked up; chain CTCSPSHPQDAFCNSDIVIRAKVVGKKLVKEGPFGTLVYTIKQMKMYRGFTKMPHVQYIHTEASESLCGLKLEVNKYQYLLTGRVYDGKMYTGLCNFVERWDQLTLSQRKGLNYRYHLGCN
B3: UGT1A9 (Homo sapiens, UniProt O60656); chain GKLLVVPMDGSHWFTMRSVVEKLILRGHEVVVVMPEVSWQLGRSLNCTVKTYSTSYTLEDLDREFKAFAHAQWKAQVRSIYSLLMGSYNDIFDLFFSNCRSLFKDKKLVEYLKESSFDAVFLDPFDNCGLIVAKYFSLPSVVFARGILCHYLEEGAQCPAPLSYVPRILLGFSDAMTFKERVRNHIMHLEEHLLCHRFFKNALEIASEILQTPVTEYDLYSHTSIWLLRTDFVLDYPKPVMPNMIFIGGINCHQGKPLPMEFEAYINASGEHGIVVFSLGSMVSEIPEKKAMAIADALGKIPQTVLWRYTGTRPSNLANNTILVKWLPQNDLLGHPMTRAFITHAGSHGVYESICNGVPMVMMPLFGDQMDNAKRMETKGAGVTLNVLEMTSEDLENALKAVINDKSYKENIMRLSSLHKDRPVEPLDLAVFWVEFVMRHKGAPHLRPAAHDLTWYQYHSLDVIGFLLAVVLTVAFITFKCCAYGYRKCLGKKGRVKKAHKSKTH
B4: mel-26 (Caenorhabditis elegans, UniProt Q94420); sequence looked up; chain MEPRIDGGVFIGGIGNSGNEMCSNGVPALGVSSQTEIKVEKVQHTWTVKNFSHCYQEYLENFVYLQRGDEQLTWSIKIYPKGNGENNKDFVFLCLNRVINNNVKAGKIGFKSQFKLRTAENKDIEMRIHPNPSHSDYVSYIKRDVLFPQIMPRDMIIVNVEIDVAVETITTTNEPIQFEPTNSEQQLIEDYQRLFSQELLCDFAINVNGKIIRAHKAVLAARSPVFNAMLTHQDTDEAKSSMMYINDMDYDVIYEMVYYIYCGRCNKDITDMATALLIAADKYRLEELKSHCEKYLVENINIENACSLLIIGDLYSAPKLRKRAVTYILARPKNVTGTPGWEDILKGHPNLITDIFSQIDRQSSTGATSSVSNLPGVPMDIPGITGNIVPPPSGL
B5: CTNNB1 T393A (Homo sapiens, UniProt P35222); sequence looked up; chain MATQADLMELDMAMEPDRKAAVSHWQQQSYLDSGIHSGATTTAPSLSGKGNPEEEDVDTSQVLYEWEQGFSQSFTQEQVADIDGQYAMTRAQRVRAAMFPETLDEGMQIPSTQFDAAHPTNVQRLAEPSQMLKHAVVNLINYQDDAELATRAIPELTKLLNDEDQVVVNKAAVMVHQLSKKEASRHAIMRSPQMVSAIVRTMQNTNDVETARCTAGTLHNLSHHREGLLAIFKSGGIPALVKMLGSPVDSVLFYAITTLHNLLLHQEGAKMAVRLAGGLQKMVALLNKTNVKFLAITTDCLQILAYGNQESKLIILASGGPQALVNIMRTYTYEKLLWTTSRVLKVLSVCSSNKPAIVEAGGMQALGLHLTDPSQRLVQNCLWTLRNLSDAAAKQEGMEGLLGTLVQLLGSDDINVVTCAAGILSNLTCNNYKNKMMVCQVGGIEALVRTVLRAGDREDITEPAICALRHLTSRHQEAEMAQNAVRLHYGLPVVVKLLHPPSHWPLIKATVGLIRNLALCPANHAPLREQGAIPRLVQLLVRAHQDTQRRTSMGGTQQQFVEGVRMEEIVEGCTGALHILARDVHNRIVIRGLNTIPLFVQLLYSPIENIQRVAAGVLCELAQDKEAAEAIEAEGATAPLTELLHSRNEGVATYAAAVLFRMSEDKPQDYKKRLSVELTSSLFRTEPMAWNETADLGLDIGAQGEPLGYRQDDPSYRSFHSGGYGQDALGMDPMMEHEMGGHHPGADYPVDGLPDLGHAQDLMDGLPPGDSNQLAWFDTDL
B6: Homer1a; chain MGEQPIFSTRAHVFQIDPNTKKNWVPTSKHAVTVSYFYDSTRNVYRIISLDGSKAIINSTITPNMTFTKTSQKFGQWADSRANTVYGLGFSSEHHLSKFAEKFQEFKEAARLAKEKSQEKMELTSTPSQESAGGDLQSPLTPESINGTDDERTPDVTQNSEPRAEPTQNALPFPHRYTFNSAIMIK
Sequence of UniProt P70618 (whole entry, unmodified, looked up): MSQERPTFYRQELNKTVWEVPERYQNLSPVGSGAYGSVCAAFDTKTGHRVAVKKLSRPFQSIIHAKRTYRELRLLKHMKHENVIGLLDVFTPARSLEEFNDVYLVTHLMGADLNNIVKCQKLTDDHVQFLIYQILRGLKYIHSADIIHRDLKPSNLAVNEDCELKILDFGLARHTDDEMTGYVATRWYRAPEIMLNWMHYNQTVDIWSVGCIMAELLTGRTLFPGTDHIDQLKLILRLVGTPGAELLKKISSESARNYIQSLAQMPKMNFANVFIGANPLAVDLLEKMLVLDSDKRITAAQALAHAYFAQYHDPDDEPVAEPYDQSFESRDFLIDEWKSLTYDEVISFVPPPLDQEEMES
Sequence of UniProt O75173 (whole entry, looked up): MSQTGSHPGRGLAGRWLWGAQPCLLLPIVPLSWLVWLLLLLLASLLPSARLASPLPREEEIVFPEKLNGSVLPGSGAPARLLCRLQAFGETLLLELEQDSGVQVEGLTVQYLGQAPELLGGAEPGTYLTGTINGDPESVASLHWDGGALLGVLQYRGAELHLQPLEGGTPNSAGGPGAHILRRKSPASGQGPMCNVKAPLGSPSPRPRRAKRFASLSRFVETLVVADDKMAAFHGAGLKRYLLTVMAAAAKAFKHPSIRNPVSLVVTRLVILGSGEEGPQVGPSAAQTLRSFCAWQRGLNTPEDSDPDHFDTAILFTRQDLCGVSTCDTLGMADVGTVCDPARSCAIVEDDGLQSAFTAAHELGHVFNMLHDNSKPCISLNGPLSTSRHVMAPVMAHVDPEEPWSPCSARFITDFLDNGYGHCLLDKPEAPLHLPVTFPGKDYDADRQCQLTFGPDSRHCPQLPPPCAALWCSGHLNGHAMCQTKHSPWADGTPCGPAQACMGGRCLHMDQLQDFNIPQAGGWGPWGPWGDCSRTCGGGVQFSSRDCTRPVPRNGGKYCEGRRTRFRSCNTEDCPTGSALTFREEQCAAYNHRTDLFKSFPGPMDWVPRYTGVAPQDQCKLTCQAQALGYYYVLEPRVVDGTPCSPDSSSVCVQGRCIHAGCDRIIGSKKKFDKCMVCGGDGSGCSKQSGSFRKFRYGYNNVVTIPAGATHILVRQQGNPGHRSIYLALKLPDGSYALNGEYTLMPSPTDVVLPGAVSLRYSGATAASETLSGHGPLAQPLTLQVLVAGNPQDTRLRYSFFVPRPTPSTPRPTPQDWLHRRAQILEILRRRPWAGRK
Sequence of UniProt P11362 (whole entry, looked up): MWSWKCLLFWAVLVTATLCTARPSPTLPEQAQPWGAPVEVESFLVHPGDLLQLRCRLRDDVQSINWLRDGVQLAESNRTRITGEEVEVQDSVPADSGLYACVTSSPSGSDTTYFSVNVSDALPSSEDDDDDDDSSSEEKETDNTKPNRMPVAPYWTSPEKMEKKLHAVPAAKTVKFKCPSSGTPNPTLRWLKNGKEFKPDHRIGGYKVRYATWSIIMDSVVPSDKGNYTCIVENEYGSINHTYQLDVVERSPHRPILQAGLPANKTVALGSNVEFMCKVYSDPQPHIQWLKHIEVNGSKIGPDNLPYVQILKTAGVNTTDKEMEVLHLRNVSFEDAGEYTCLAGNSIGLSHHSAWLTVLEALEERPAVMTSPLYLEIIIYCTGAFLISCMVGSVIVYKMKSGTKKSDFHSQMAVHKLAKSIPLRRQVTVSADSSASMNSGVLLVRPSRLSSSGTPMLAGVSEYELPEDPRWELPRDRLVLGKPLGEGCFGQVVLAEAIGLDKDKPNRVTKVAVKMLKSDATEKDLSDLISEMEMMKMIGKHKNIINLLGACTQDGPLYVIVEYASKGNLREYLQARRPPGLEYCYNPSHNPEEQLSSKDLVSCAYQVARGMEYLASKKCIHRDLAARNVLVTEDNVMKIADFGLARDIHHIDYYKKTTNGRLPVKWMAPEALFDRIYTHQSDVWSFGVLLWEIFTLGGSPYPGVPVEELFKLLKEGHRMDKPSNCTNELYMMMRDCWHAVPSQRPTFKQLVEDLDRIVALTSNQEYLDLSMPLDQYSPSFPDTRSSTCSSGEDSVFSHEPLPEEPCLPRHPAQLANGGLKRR
Sequence of UniProt P46873 (whole entry, looked up): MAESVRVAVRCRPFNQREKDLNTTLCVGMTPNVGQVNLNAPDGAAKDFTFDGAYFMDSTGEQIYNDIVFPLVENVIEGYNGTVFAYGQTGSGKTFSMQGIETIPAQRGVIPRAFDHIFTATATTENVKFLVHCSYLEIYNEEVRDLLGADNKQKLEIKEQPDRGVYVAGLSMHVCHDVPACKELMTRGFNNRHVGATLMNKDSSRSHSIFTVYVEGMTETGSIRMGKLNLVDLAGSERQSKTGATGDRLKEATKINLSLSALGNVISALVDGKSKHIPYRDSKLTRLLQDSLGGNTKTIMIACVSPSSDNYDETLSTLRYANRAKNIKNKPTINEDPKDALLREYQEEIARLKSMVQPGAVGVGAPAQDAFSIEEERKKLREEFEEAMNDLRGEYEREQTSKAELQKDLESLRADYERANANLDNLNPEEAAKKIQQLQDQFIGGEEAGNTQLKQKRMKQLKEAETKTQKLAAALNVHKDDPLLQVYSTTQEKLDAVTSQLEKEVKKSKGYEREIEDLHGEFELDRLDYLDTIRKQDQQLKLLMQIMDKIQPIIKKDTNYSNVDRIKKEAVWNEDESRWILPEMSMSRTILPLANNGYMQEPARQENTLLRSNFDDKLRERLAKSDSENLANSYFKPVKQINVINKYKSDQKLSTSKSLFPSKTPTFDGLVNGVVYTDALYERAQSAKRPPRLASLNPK
Sequence of UniProt Q9UQ84 (whole entry, looked up): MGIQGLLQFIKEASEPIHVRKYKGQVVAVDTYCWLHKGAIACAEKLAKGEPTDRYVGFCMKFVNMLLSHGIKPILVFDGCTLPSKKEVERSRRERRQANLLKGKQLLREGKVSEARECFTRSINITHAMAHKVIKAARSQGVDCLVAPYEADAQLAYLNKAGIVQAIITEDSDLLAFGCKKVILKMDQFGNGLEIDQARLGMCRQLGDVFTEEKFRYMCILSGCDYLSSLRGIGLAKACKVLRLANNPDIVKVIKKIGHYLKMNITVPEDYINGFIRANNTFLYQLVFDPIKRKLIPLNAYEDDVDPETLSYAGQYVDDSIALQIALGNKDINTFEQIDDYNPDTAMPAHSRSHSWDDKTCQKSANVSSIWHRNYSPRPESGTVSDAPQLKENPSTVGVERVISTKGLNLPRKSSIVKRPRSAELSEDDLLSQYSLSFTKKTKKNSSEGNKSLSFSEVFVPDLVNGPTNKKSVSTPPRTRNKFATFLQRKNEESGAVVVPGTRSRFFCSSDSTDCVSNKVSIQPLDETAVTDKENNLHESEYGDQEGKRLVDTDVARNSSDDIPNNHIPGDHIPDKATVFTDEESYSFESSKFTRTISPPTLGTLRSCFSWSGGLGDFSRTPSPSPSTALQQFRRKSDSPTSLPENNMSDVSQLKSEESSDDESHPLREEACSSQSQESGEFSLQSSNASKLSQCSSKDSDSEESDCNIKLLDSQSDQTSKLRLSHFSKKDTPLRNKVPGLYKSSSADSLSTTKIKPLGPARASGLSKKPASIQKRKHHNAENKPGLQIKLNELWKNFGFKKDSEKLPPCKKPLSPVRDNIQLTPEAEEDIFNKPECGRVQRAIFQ
Sequence of UniProt P0A6A8 (whole entry, looked up): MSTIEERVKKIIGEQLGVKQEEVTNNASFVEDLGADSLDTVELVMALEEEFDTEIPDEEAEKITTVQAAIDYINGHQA

B1 (POL30) — koff (REV1/RAD30 binary complex, Cy5 label (Saccharomyces cerevisiae); single-molecule TIRF; pH 7.5): 0.55 ± 0.02 s⁻¹
POLR2A CTD repeats — Km (Brd4 (Mus musculus, UniProt Q9ESU6); in vitro kinase assay; together with: radiolabeled ATP): 0.259 µM
YAERPSRDHLYLPLEP (NFATC3 D-site peptide (Homo sapiens)) — IC50 (Mapk14 N159K/E160S/E163T, pT180, pY182 (Rattus norvegicus, UniProt P70618); kinase activity, inhibitor, competitive kinase inhibition assay; peptide; together with: ATP 1 mM): > 100 µM
TIMP2 N-terminal domain S4P/V6G/I35V/S68N/V71I/T99N — Ki (MMP2 (Homo sapiens, UniProt P08253); fluorogenic substrate cleavage, inhibitor, enzyme inhibition assay; apparent): 0.0389 µM
fabF R68A (Escherichia coli) — condensation rate (acpP C12-acylated 1-78, C12 acyl on 4'-phosphopantetheine (Escherichia coli, UniProt P0A6A8); holo-AcpP formation, HPLC; 10 µM, together with: malonyl-CoA): 1.2 min⁻¹
cpSRP43 substrate-binding domain (Arabidopsis thaliana) — chaperone activity (GUN4 mature (UniProt Q9LX31); heat-induced aggregation, light scattering; relative to: cpSRP43-FL, higher = weaker chaperone activity): > 20 fold lower
dyf-1/osm-5 (Caenorhabditis elegans) — velocity (osm-3 (Caenorhabditis elegans, UniProt P46873); single-molecule transport): 1.2 µm/s
YASKGKKRNPGLKIPK (MAP2K6 residues 4-17 (Homo sapiens)) — IC50 (Mapk14 D315S/D316E/E317A, pT180, pY182 (Rattus norvegicus, UniProt P70618); kinase activity, inhibitor, competitive kinase inhibition assay; peptide; together with: ATP 1 mM): 16 µM
MENVKKATATTTWMVPTAA (L3MBTL3 52-70 Q70A (Homo sapiens, UniProt Q96JM7-2); sequence looked up) — ΔH (Rbpj; ITC; peptide; pH 6.5, 25 °C, NaCl 150 mM): -14.2 kcal/mol
ADM2 fragment (Homo sapiens) — cAMP decay half-life (CALCRL/RAMP2 whole, on cells (Homo sapiens); cAMP, antagonist, CAMYEL BRET; COS-7): 2.68 min
lanreotide, D-Trp, cyclic disulfide — potency of cAMP inhibition (SSTR1 M141Q (Homo sapiens, UniProt P30872); cAMP inhibition, FRET Epac sensor; HEK 293T; relative to: wild-type SSTR1, higher = greater potency): 10 fold
BCR/ABL1 fusion (Homo sapiens) — time to half-maximal phosphorylation (Abltide-p40 fusion Abltide at N-terminus; substrate phosphorylation; K-562, lysate; competing substrates; lower = faster): < 2 min
HMGN2 K30C, succinyl-lysine analogue at 30 — relative Kd (H2A/H2B/H3/H4/Widom 601 DNA nucleosome (Xenopus laevis); ITC; 450 µM, KCl 10 mM; relative to: unmodified HMGN2, higher = weaker binding): 4 fold
B2 (TIMP3 24-144) — Ki (ADAMTS4 213-837 (Homo sapiens, UniProt O75173); inhibitor, steady-state kinetics; 1 h, pH 7.5, 37 °C): 0.00013 µM
Ac-ARPCG-NH2 (PTX3 100-104 A104G, N-acetyl/C-terminal amide (Homo sapiens); N-acetyl/C-terminal amide) — ID50 (FGF2 18 kD form (Homo sapiens); cell proliferation, antagonist; peptide, GM7373; 3-1000 µM, together with: FGF2 0.55 nM): > 1000 µM
Ac-NWKLLAKGLLIRERLKR-NH2 (XPC 847-863 (Homo sapiens); N-acetyl; C-terminal amide) — molecule per partner (CETN1, phosphothreonine (Homo sapiens, UniProt Q12798); ITC; peptide): 0.61
B3 (UGT1A9) — Vmax/Km (O=c1oc2cc(O)ccc2c(-c2ccccc2)c1-c1ccccc1; steady-state kinetics; pH 7.4, 37 °C): 41 µL/min/mg
TFPI endogenous, on cells (Homo sapiens, UniProt P10646) — free factor Xa (F10 factor Xa; factor Xa inhibition; HUVEC; 100 µg/mL total protein, initial, α-cyclodextrin): 0.098 nM
MENVKKATAATTWMVPTAQ (L3MBTL3 52-70 T61A (Homo sapiens, UniProt Q96JM7-2); sequence looked up) — ΔH (Rbpj; ITC; peptide; pH 6.5, 25 °C, NaCl 150 mM): -11.4 kcal/mol
B4 (mel-26) — binding (mei-1/mei-2 S113A, phosphorylated by MBK-2 (Caenorhabditis elegans); dot blot; 4 °C, native): binds
FGF8 (Homo sapiens, UniProt P55075) — cell proliferation (FGFR3 isoform IIIc; cell proliferation, MTT; BaF3-FGFR3c; 20 nM, 48 h, together with: unmodified decamer 4.9 µg/mL; relative to: FGF 1 with heparin, higher = more proliferation): 3%
WRN fragment (Homo sapiens) — incision (EXO1 (Homo sapiens, UniProt Q9UQ84); Holliday junction incision by EXO1, activator; 8 nM, 15 min, 37 °C; higher = more incision): 12 fold
NPY N7F/Q34P — membrane hyperpolarisation (Npy1r (Rattus norvegicus, UniProt P21555); agonist, whole-cell current clamp; BLA pyramidal neurons, rat brain slices; 1 µM): 5.5 mV
clpX fragment (Thermus thermophilus) — half-maximal activation concentration (clpP 1-194 (Thermus thermophilus, UniProt Q5SKM8); peptidase activity, activator; together with: bortezomib): 120 nM
F8 A2 subunit D666C — decay rate (F8 A1 and A3C1C2 dimer, factor VIIIa S1788C; FXa generation activity loss; 1.5 nM, 23 °C, disulfide-linked A2; higher = faster decay): 0.002 min⁻¹
FGF1 (Homo sapiens, UniProt P05230) — cell proliferation (FGFR3 isoform IIIc; cell proliferation, MTT; BaF3-FGFR3c; 20 nM, 48 h, together with: unmodified decamer 4.9 µg/mL; relative to: FGF 1 with heparin, higher = more proliferation): 5%
FGF2 fragment C78S/C96S, C-terminal KCK, vcMMAE on Cys (Homo sapiens) — EC50 (FGFR1 extracellular domain, Fc fusion 22-376 (UniProt P11362); cell viability, Alamar Blue; U2OS-R1; 96 h): 0.0167 µM
B5 (CTNNB1 T393A) — phosphorylated to total β-catenin ratio (Axin (Xenopus, UniProt Q9YGY0); immunoblot; C57MG; higher = more phosphorylation): 0.9 ratio
B6 (Homer1a) — BRET ratio (Grm5 (Rattus norvegicus, UniProt P31424-2); BRET; in spine, single-cell imaging; relative to: mean BRET in shaft, higher = more interaction): 101%

Some of these lines once more:
Ac-NWKLLAKGLLIRERLKR-NH2 (XPC 847-863 (Homo sapiens); N-acetyl; C-terminal amide) — molecule per partner (CETN1, phosphothreonine (Homo sapiens, UniProt Q12798); ITC; peptide): 0.61
MENVKKATAATTWMVPTAQ (L3MBTL3 52-70 T61A (Homo sapiens, UniProt Q96JM7-2); sequence looked up) — ΔH (Rbpj; ITC; peptide; pH 6.5, 25 °C, NaCl 150 mM): -11.4 kcal/mol
